Published values from different studies.
Compare with care: the assays were run in different laboratories.
Target: Adenosine receptor A1 (ADORA1, Homo sapiens, UniProt P30542)
UniProt P30542, sequence (whole entry, looked up): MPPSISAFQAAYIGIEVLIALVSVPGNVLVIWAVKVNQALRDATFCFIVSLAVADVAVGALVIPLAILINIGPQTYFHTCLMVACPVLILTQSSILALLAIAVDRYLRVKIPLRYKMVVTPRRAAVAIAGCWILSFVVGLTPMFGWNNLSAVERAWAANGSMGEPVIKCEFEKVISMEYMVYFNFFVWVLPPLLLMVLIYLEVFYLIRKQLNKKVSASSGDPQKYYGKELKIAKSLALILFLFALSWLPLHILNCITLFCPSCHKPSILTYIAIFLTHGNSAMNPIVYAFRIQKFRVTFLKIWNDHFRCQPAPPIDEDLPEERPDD

The Ki of `COc1ccc(-c2nc(CSc3nc(N)c(C#N)c(-c4ccccc4)c3C#N)cs2)cc1` is reported as 6.1 nM (ligand displacement, radioligand; cell membranes).
The Ki of `NC(=O)CNC(=O)[C@H]1O[C@@H](n2cnc3c(N)ncnc32)[C@H](O)[C@@H]1O` is reported as 330 nM (ligand displacement, radioligand; cell membranes).
With `CCCn1c(=O)c2[nH]c(-c3ccc(OCC(=O)NCCNC(=O)CCCCCNC(=O)COc4ccc(/C=C/C5=[N+]6C(=Cc7ccc(-c8cccs8)n7[B-]6(F)F)C=C5)cc4)cc3)nc2n(CCC)c1=O` the Kd was 72.4 nM (CRE reporter gene, antagonist; CHO-A1; Gs response, PTX-pretreated overnight, added: NECA and forskolin).
The Ki of `CC(=O)Nc1ccc(-c2c(C#N)c(N)nc(SCc3ccccc3)c2C#N)cc1` is reported as 109 nM (ligand displacement, radioligand; cell membranes).
`Nc1ncnc2c1ncn2[C@@H]1O[C@H](C(=O)NCC(F)F)[C@@H](O)[C@H]1O` gave a Ki of 4.7 nM (ligand displacement, radioligand; cell membranes).
The EC50 of `CCNC(=O)[C@H]1O[C@@H](n2cnc3c(NCCCCNC(=O)CCCCCNC(=O)CCC4=[N+]5C(=Cc6c(C)cc(C)n6[B-]5(F)F)C=C4)ncnc32)[C@H](O)[C@@H]1O` is reported as > 10000 nM (reporter gene, agonist).
With `N#Cc1c(N)nc(SCc2ncc[nH]2)c(C#N)c1-c1cccc(F)c1` the Ki was 13 nM (ligand displacement, radioligand; cell membranes).
The Ki of `Nc1ncnc2c1ncn2[C@@H]1O[C@H](C(=O)NCCCF)[C@@H](O)[C@H]1O` is reported as 8.9 nM (ligand displacement, radioligand; cell membranes).
`CN(C(=O)c1ccn2ncc(-c3ccc(C(N)=O)cc3)c2c1)c1ccc(C#N)cn1` gave an IC50 of > 30000 nM (ligand displacement).
With `CCNC(=O)[C@H]1O[C@@H](n2cnc3c(NCCCCNC(=O)CCN(C)c4ccc5nc6ccc(N(CC)CCCS(=O)(=O)[O-])cc6[o+]c5c4)ncnc32)[C@H](O)[C@@H]1O` the IC50 was 3550 nM (CRE reporter gene, agonist; CHO-A1; Gi-mediated inhibition, added: forskolin).

Repeated from above:
The Ki of `Nc1ncnc2c1ncn2[C@@H]1O[C@H](C(=O)NCCCF)[C@@H](O)[C@H]1O` is reported as 8.9 nM (ligand displacement, radioligand; cell membranes).
